Measured values of several laboratories.
± gives the spread as reported.
Sample: plasma

SMILES	method	host	route	dose	time	notes	Cmax
CC(=O)C[C@H](c1ccccc1)c1c(O)c2ccccc2oc1=O		healthy human volunteers		dose not given		given alone	269 ng/mL
CC[C@H](C)[C@H](NC(=O)[C@H](CC(C)C)NC(=O)[C@H](Cc1c[nH]c2ccccc12)NC(=O)[C@H](CCC(N)=O)NC(=O)[C@@H](NC(=O)[C@H](Cc1ccccc1)NC(=O)[C@H](C)NC(=O)[C@H](CCCCNC(=O)COCCOCCNC(=O)COCCOCCNC(=O)CC[C@H](NC(=O)CCCCCCCCCCCCCCCCCCC(=O)O)C(=O)O)NC(=O)[C@H](CCC(N)=O)NC(=O)[C@H](C)NC(=O)[C@@H](NC(=O)[C@H](CCCCN)NC(=O)[C@H](CC(=O)O)NC(=O)[C@H](CC(C)C)NC(=O)C(C)(C)NC(=O)[C@@H](NC(=O)[C@H](CO)NC(=O)[C@H](Cc1ccc(O)cc1)NC(=O)[C@H](CC(=O)O)NC(=O)[C@H](CO)NC(=O)[C@@H](NC(=O)[C@H](Cc1ccccc1)NC(=O)[C@@H](NC(=O)CNC(=O)[C@H](CCC(=O)O)NC(=O)C(C)(C)NC(=O)[C@@H](N)Cc1ccc(O)cc1)[C@@H](C)O)[C@@H](C)O)[C@@H](C)CC)[C@@H](C)CC)C(C)C)C(=O)N[C@@H](C)C(=O)NCC(=O)NCC(=O)N1CCC[C@H]1C(=O)N[C@@H](CO)C(=O)N[C@@H](CO)C(=O)NCC(=O)N[C@@H](C)C(=O)N1CCC[C@H]1C(=O)N1CCC[C@H]1C(=O)N1CCC[C@H]1C(=O)N[C@@H](CO)C(N)=O		human, mild hepatic impairment (Child-Pugh A)	subcutaneous	5 mg single dose		geometric LS mean, weight-adjusted	481 ng/mL
Cc1cnc(C(=O)N[C@H]2CCCCC/C=C\[C@@H]3C[C@@]3(C(=O)NS(=O)(=O)C3CC3)NC(=O)[C@@H]3C[C@@H](Oc4nc5ccccc5c5ccccc45)CN3C2=O)cn1		healthy human volunteers	oral	dose not given		alone, escitalopram interaction study	455 ng/mL
COc1ccc(C[C@@H]2NC(=O)[C@H]([C@@H](C)O)NC(=O)[C@@H]3[C@@H]4CCN3C(=O)[C@@H]3Cc5cn(c6ccc(F)cc56)CCCCCCN(Cc5ccc(cc5)CCNC(=O)[C@]5(C)CCCN5C2=O)C(=O)CCC(=O)N[C@@H](C)C(=O)N[C@H](CNC(=O)CCCCC[N+](C)(C)C)C(=O)N[C@@H](Cc2cccc(c2)CNC(=O)CO4)C(=O)N3)cc1		fasted healthy humans	oral	200 mg single dose		with 1800 mg Labrasol, geometric mean	45.3 nM
CCCCCOc1ccc(-c2cc(-c3ccc(C(=O)N[C@H]4C[C@@H](O)[C@@H](O)NC(=O)[C@@H]5[C@@H](O)[C@@H](C)CN5C(=O)[C@H]([C@H](O)CC(N)=O)NC(=O)[C@H]([C@H](O)[C@@H](O)c5ccc(O)c(OS(=O)(=O)O)c5)NC(=O)[C@@H]5C[C@@H](O)CN5C(=O)[C@H]([C@@H](C)O)NC4=O)cc3)no2)cc1		human paediatric patients 6 to sample C years	intravenous	4.5 mg/kg once daily	day 7	mean	20700 ng/mL
CN1CC(=O)N2[C@H](c3ccc4c(c3)OCO4)c3[nH]c4ccccc4c3C[C@@H]2C1=O		healthy adult humans, both sexes	oral	10/40 mg fixed-dose combination, single dose		fasted, food-effect part	475 ng/mL
CCCCCOc1ccc(-c2ccc(-c3ccc(C(=O)N[C@H]4C[C@@H](O)[C@@H](O)NC(=O)[C@@H]5[C@@H](O)[C@@H](C)CN5C(=O)[C@H]([C@@H](C)O)NC(=O)[C@H]([C@H](O)[C@@H](O)c5ccc(O)cc5)NC(=O)[C@@H]5C[C@@H](O)CN5C(=O)[C@H]([C@@H](C)O)NC4=O)cc3)cc2)cc1		human infants	intravenous	3 mg/kg loading dose			6900 ng/mL
CC[C@@]1(O)C(=O)OCc2c1cc1n(c2=O)Cc2cc3c(CN(C)C)c(O)ccc3nc2-1		human patients	oral	8 mg weekly		geometric mean, alone	24.8 ng/mL
Cc1ncc2n1-c1ccc(Cl)cc1C(c1ccccc1F)=NC2		human	oral	7.5 mg		alone before amenamevir 200 mg	26.3 ± 13.7 ng/mL
Oc1ccc2cc3ccc4cccc5ccc(c2c1)c3c45	UPLC-AMS	human	oral	25 ng of [14C]-BaP			0.66 ± 0.06 fg BaP equivalents/mL

Excerpt of the above:
SMILES	method	host	route	dose	time	notes	Cmax
Cc1ncc2n1-c1ccc(Cl)cc1C(c1ccccc1F)=NC2		human	oral	7.5 mg		alone before amenamevir 200 mg	26.3 ± 13.7 ng/mL
